Measurements pooled from the literature.
Compare with care: the assays were run in different laboratories. “And” joins repeats or separate records; there may be more than shown. ± marks the error that the study gave.
PPARA ligand-binding domain: Peroxisome proliferator-activated receptor alpha, ligand-binding domain (PPARA, Homo sapiens, UniProt Q07869)
Sequence of UniProt Q07869 (whole entry, looked up): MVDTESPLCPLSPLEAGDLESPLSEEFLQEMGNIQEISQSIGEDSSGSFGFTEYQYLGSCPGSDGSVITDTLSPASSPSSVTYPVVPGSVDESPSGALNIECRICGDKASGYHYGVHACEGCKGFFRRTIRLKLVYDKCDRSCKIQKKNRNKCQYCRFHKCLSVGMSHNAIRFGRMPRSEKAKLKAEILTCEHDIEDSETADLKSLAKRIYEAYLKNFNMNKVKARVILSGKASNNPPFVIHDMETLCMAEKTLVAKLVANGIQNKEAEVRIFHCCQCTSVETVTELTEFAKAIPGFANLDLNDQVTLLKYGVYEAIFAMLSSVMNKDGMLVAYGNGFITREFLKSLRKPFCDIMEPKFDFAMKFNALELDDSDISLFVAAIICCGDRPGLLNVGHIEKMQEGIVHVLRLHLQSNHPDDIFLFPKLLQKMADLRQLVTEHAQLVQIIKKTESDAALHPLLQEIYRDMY
GBA2: Beta-glucosidase (GBA2, Homo sapiens, UniProt Q9HCG7)
Sequence of UniProt Q9HCG7 (whole entry, looked up): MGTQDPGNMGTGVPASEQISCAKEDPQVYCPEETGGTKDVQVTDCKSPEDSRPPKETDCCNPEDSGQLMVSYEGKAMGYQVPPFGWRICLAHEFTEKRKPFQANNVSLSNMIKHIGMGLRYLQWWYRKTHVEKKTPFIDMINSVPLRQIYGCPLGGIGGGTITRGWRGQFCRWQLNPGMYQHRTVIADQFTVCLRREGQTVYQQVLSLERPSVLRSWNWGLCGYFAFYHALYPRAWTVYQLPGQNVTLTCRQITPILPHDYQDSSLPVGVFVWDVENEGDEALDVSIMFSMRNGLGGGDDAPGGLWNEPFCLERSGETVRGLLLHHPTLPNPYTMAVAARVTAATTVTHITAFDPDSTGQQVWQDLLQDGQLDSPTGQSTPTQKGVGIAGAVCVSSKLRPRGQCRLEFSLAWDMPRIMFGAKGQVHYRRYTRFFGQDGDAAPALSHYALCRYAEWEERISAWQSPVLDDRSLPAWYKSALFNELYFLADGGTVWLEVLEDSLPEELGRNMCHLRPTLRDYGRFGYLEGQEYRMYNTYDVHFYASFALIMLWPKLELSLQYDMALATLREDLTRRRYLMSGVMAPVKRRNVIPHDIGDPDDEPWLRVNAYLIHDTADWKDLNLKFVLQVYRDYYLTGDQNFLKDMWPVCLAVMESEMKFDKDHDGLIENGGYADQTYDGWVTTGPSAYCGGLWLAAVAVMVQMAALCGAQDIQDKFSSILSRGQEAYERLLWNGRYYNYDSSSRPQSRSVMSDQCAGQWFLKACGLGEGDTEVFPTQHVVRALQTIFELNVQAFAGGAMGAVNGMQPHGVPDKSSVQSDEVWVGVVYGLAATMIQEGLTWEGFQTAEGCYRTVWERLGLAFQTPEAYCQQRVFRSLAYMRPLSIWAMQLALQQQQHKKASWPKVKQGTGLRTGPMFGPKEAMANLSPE
Chymotrypsinogen A: Chymotrypsinogen A (Bos taurus, UniProt P00766)
Sequence of UniProt P15291 (whole entry, looked up): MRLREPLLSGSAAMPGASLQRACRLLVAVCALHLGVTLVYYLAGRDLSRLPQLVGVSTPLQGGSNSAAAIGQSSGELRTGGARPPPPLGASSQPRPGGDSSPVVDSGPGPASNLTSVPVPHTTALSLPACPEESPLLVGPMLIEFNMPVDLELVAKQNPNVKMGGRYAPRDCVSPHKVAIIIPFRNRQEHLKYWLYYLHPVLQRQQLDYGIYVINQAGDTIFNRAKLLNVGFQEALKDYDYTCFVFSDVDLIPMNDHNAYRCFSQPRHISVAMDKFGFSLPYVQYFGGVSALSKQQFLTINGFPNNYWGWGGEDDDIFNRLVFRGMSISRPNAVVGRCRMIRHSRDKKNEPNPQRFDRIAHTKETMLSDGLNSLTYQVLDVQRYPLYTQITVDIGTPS
Sequence of UniProt P10997 (whole entry, looked up): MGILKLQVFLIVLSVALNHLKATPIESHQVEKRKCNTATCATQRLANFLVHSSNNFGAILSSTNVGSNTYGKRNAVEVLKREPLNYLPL
Sequence of UniProt O75469 (whole entry, looked up): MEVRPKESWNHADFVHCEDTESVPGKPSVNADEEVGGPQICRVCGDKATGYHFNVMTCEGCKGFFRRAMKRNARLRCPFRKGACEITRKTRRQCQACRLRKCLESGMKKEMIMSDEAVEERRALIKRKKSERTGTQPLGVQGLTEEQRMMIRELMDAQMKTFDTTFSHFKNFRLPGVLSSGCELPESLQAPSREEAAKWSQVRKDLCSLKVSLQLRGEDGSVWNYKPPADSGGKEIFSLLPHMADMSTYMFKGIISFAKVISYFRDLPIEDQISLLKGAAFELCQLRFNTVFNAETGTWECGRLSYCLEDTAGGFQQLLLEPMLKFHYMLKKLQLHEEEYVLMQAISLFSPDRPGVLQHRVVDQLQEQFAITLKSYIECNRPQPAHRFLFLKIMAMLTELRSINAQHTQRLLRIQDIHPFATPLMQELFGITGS
Sequence of UniProt P07949 (whole entry, unmodified, looked up): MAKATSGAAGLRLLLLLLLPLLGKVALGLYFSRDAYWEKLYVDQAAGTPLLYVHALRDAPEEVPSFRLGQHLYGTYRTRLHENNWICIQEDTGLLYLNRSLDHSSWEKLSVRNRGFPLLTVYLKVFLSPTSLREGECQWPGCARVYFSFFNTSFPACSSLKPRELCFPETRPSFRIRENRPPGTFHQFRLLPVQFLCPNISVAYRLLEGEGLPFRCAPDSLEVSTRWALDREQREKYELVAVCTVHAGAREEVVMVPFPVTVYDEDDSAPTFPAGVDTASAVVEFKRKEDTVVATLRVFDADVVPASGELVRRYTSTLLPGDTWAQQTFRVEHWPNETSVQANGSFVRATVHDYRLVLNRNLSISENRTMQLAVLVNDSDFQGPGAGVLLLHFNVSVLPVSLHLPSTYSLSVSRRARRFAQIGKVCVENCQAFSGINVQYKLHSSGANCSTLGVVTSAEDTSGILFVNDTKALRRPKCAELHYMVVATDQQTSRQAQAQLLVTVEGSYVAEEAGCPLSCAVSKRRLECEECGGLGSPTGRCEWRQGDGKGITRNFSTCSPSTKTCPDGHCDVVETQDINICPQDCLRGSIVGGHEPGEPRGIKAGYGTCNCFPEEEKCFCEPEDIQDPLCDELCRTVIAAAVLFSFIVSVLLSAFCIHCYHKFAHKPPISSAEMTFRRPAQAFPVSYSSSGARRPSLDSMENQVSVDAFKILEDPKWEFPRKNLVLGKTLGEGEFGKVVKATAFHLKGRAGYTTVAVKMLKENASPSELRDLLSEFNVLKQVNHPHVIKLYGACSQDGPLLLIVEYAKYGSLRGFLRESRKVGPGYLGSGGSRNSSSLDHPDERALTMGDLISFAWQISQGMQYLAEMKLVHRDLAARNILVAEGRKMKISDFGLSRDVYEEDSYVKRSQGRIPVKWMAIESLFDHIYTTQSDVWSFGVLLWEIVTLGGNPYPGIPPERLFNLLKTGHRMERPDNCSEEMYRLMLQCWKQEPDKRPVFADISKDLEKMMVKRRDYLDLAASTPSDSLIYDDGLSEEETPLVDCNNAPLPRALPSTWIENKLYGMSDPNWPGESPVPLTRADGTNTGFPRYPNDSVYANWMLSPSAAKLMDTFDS
Sequence of UniProt P09917 (whole entry, looked up): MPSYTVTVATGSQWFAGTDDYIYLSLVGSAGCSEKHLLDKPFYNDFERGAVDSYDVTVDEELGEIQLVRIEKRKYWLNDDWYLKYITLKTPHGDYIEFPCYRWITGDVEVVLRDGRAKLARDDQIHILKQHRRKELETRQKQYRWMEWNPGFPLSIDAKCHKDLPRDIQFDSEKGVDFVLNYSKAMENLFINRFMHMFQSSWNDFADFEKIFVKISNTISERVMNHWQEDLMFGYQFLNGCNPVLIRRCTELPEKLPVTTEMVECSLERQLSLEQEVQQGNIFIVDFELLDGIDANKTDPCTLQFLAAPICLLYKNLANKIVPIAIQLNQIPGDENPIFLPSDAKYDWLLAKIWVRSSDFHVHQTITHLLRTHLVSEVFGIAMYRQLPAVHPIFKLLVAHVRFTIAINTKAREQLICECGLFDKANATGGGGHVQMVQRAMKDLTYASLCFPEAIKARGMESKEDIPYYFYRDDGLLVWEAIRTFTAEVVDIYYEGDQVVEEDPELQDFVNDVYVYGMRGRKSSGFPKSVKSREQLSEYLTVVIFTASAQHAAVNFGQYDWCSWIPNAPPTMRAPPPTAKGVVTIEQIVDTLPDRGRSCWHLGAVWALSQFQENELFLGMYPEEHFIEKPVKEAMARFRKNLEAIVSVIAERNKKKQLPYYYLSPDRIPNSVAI
Sequence of UniProt Q8IXJ6 (whole entry, looked up): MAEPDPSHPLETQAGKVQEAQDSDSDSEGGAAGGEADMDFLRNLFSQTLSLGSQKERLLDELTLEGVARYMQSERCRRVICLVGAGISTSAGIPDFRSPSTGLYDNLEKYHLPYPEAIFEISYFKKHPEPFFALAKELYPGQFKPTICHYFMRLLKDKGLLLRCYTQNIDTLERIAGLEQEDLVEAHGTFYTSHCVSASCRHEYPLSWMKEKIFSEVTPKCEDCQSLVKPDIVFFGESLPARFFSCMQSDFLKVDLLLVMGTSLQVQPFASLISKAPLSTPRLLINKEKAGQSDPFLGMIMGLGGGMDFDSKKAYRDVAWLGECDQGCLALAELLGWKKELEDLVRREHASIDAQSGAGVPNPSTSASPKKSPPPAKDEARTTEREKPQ
Sequence of UniProt P10632 (whole entry, looked up): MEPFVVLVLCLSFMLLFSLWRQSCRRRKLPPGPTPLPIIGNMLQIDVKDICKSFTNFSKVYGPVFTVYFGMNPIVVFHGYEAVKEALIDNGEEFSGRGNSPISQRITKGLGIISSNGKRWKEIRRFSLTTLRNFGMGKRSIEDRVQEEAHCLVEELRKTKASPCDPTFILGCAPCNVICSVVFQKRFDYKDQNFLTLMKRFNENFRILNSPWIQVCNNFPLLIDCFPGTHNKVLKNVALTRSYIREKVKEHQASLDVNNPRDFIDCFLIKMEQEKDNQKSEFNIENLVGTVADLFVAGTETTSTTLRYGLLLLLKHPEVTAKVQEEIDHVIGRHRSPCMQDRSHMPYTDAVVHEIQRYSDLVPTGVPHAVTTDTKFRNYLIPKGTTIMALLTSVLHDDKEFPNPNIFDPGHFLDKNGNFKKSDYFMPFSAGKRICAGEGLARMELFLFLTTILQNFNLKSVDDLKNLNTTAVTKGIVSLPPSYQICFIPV

| Compound | target | assay | test system | setting | IC50 |
| --- | --- | --- | --- | --- | --- |
| Cc1c(Cc2ccc(OC(C)C(=O)O)cc2)c2ccc(C(=O)NC(C)c3cccc(C4CC4)c3)cc2n1C (mixture of isomers) | PPARA ligand-binding domain | reporter gene, luciferase reporter | HEK293T, Gal4-PPARα LBD | – | 12400 nM |
| OC[C@H]1[C@@H](O)[C@H](O)[C@@H](O)CN1CCCCOCCC12CC3CC(CC(C3)C1)C2 | GBA2 | inhibitor, 4MU-β-D-glucopyranoside | HEK293T homogenates overexpressing GBA2 | – | 0.58 nM |
| O=C1NC(=O)C(n2cnc3ccccc32)=C1c1ccccc1 | Sensor histidine kinase AirS (Staphylococcus aureus, UniProt Q2FX96) | autophosphorylation, inhibitor, BODIPY-FL-ATPγS in-gel fluorescence | – | lower bound of confidence interval | > 781000 nM |
| CCC[C@H](CC)Oc1ccc(C(C)(C)C)cc1NC(=O)c1nnn(-c2cc(C)c(OC)cc2OC)c1C | Nuclear receptor subfamily 1 group I member 2 (NR1I2, Homo sapiens, UniProt O75469) | reporter gene, agonist | HepG2 transfected PXR and CYP3A4-luc | 24 h, DMSO 0% | 4.4 ± 1 nM |
| CC(C)=CCC/C(C)=C/CC/C(C)=C/CN1C[C@@H](O)[C@H](O)[C@H](O)[C@@H]1CO | GBA2 | inhibitor, 4MU-β-D-glucopyranoside | HEK293T homogenates overexpressing GBA2 | – | 2.7 nM |
| Oc1ccc([C@H]2CCc3ccc(O)cc3O2)cc1 | Polyunsaturated fatty acid 5-lipoxygenase (ALOX5, Homo sapiens, UniProt P09917) | enzyme activity, inhibitor | – | – | > 10000 nM |
| COC(=O)CC(c1cc2ccccc2n(C)c1=O)c1c(O)cc(O)c2c(=O)c(O)c(-c3ccc(O)c(O)c3)oc12 (stereo not drawn) | Beta-1,4-galactosyltransferase 1 (B4GALT1, Homo sapiens, UniProt P15291) | inhibitor, UDP-Glo luminescence | – | – | ~6000 nM and 6200 nM |
| Cc1nn(-c2cccc(N)c2)c(=O)c2cnc(Nc3ccc(N4CCNCC4)cc3)nc12 | Proto-oncogene tyrosine-protein kinase receptor Ret (RET, Homo sapiens, UniProt P07949, Y791F) | kinase activity, inhibitor, SelectScreen kinase profiling | – | – | 2720 nM |
| CCCCCCCCOCCCCCN1C[C@H](O)[C@@H](O)[C@H](O)[C@H]1CO | GBA2 | inhibitor, 4MU-β-D-glucopyranoside | HEK293T homogenates overexpressing GBA2 | – | 10 nM |
| Cc1c(Cc2cccc(OC(C)C(=O)O)c2)c2ccc(C(=O)NC(C)c3ccc(C4CC4)cc3)cc2n1C (mixture of isomers) | PPARA ligand-binding domain | reporter gene, luciferase reporter | HEK293T, Gal4-PPARα LBD | – | 31900 nM |
| O=C(Nc1ccccc1OCc1ccccc1)C(C(F)(F)F)C(F)(F)F | Chymotrypsinogen A | enzyme activity, inhibitor, fluorescence | – | – | 14000 nM |
| CCCCCCCCCCCCNC(=S)NCCCC[C@H](NC(=O)OCc1ccccc1)C(=O)N[C@@H](Cc1c[nH]c2ccccc12)C(=O)N[C@@H](CC(C)C)C(N)=O | NAD-dependent protein deacetylase sirtuin-2 (SIRT2, Homo sapiens, UniProt Q8IXJ6) | enzyme activity, inhibitor | – | – | 510 nM |
| Cc1cccc(C)c1NC(=O)C(C(F)(F)F)C(F)(F)F | Chymotrypsinogen A | enzyme activity, inhibitor, fluorescence | – | – | 9000 nM |
| CN(C)c1ccc(/N=N/c2ccc(C(=O)NCC(=O)OCCN)cc2)cc1 | Islet amyloid polypeptide (IAPP, Homo sapiens, UniProt P10997) | ThT displacement, ThT fluorescence | – | pH 7.4, preformed target-ThT complex, together with: 5 µM ThT | 1700 nM |
| O=C(NCc1ccccc1Cl)C(C(F)(F)F)C(F)(F)F | Chymotrypsinogen A | enzyme activity, inhibitor, fluorescence | – | – | 14000 nM |
| CCCCOCCCCCN1C[C@H](O)[C@@H](O)[C@H](O)[C@@H]1CO | GBA2 | inhibitor, 4MU-β-D-glucopyranoside | HEK293T homogenates overexpressing GBA2 | – | 1000 nM |
| CCC1(CC)CC(=O)N(C2CCOc3ccc(C(=O)NC4CC(C)(C)Oc5ccccc54)cc32)C(=N)N1 (stereo not drawn) | Cytochrome P450 2C8 (CYP2C8, Homo sapiens, UniProt P10632) | enzyme activity, inhibitor | – | – | > 20000 nM |
| Nc1ncc2c(n1)-c1c([nH]c3ccc(C4=CCOCC4)cc13)CCC2 | 1-phosphatidylinositol 3-phosphate 5-kinase (PIKFYVE, Homo sapiens, UniProt Q9Y2I7) | target engagement in cells, BRET | – | – | 450 nM |

A few entries again:
| Compound | target | assay | test system | setting | IC50 |
| --- | --- | --- | --- | --- | --- |
| Cc1c(Cc2ccc(OC(C)C(=O)O)cc2)c2ccc(C(=O)NC(C)c3cccc(C4CC4)c3)cc2n1C (mixture of isomers) | PPARA ligand-binding domain | reporter gene, luciferase reporter | HEK293T, Gal4-PPARα LBD | – | 12400 nM |
